# Results pooled from the literature.
# A part holds a random share of what one study measured.
# UniProt P51617, sequence (whole entry, looked up): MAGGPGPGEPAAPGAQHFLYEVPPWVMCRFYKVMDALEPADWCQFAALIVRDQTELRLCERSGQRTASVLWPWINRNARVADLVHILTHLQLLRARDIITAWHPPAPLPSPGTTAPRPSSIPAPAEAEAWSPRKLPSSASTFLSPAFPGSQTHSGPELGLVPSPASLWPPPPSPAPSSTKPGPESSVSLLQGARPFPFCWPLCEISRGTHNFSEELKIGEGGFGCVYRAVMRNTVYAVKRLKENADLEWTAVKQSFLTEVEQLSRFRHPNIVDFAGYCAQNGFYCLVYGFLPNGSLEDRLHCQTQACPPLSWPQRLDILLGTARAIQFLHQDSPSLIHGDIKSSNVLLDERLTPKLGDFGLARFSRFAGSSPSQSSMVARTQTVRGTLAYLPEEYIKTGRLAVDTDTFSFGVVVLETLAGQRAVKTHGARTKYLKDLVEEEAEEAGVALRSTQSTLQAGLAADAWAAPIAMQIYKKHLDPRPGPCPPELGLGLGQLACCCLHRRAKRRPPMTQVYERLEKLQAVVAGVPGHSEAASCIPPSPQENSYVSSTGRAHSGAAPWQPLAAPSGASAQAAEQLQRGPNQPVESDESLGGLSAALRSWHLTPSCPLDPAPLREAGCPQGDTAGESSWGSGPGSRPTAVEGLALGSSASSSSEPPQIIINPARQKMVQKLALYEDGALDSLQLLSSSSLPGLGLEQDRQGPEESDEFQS
# UniProt Q13188, sequence (whole entry, looked up): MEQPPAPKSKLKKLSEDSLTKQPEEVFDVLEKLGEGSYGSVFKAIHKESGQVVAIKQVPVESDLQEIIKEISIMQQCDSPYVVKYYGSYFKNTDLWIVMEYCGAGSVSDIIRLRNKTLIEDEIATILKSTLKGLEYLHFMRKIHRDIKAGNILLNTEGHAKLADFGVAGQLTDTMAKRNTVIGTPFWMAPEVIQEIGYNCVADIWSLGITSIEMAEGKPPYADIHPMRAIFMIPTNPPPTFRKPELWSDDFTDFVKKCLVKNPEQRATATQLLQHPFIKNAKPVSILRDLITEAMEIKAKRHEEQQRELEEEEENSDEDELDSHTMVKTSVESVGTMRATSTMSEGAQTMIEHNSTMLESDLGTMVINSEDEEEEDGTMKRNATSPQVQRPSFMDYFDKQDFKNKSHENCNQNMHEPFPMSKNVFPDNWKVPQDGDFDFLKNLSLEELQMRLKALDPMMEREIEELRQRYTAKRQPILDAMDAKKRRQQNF
# UniProt P78368, sequence (whole entry, looked up): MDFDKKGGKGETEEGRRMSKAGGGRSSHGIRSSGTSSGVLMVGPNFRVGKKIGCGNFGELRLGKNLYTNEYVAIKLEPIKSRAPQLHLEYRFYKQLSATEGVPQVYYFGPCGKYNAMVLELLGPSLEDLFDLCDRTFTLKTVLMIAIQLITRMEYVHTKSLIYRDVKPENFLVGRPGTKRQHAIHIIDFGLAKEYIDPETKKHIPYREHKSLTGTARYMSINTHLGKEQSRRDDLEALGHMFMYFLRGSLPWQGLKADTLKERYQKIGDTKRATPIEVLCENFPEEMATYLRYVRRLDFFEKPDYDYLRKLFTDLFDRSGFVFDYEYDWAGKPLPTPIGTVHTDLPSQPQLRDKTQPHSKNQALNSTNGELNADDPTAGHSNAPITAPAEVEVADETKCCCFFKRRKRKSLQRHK
# UniProt P49840, sequence (whole entry, looked up): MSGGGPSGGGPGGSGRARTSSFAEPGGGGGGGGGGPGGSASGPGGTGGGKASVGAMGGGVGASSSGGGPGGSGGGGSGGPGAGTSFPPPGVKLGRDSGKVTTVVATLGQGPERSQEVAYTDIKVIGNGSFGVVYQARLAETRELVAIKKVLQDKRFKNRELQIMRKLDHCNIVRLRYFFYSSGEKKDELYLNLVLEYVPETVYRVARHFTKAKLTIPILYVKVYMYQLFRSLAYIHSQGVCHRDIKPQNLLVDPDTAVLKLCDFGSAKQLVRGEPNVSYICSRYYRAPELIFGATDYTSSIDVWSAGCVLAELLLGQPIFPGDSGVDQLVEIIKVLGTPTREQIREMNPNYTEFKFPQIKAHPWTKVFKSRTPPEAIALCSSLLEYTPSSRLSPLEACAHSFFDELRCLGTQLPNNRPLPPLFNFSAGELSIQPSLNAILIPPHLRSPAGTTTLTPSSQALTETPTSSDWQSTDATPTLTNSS
# UniProt Q13043, sequence (whole entry, looked up): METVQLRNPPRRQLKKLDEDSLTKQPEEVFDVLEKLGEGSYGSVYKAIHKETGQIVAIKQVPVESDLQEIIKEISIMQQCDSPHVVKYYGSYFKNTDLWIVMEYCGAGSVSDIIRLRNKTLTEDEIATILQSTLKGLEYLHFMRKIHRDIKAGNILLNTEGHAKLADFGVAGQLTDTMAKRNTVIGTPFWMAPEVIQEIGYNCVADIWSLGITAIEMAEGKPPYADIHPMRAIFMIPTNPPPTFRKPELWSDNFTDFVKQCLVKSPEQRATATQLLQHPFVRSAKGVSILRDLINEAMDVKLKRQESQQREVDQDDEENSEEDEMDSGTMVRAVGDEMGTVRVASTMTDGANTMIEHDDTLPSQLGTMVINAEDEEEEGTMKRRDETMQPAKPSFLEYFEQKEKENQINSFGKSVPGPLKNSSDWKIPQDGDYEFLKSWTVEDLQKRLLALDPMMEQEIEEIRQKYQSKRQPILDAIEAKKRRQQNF
# UniProt Q9NRA0, sequence (whole entry, looked up): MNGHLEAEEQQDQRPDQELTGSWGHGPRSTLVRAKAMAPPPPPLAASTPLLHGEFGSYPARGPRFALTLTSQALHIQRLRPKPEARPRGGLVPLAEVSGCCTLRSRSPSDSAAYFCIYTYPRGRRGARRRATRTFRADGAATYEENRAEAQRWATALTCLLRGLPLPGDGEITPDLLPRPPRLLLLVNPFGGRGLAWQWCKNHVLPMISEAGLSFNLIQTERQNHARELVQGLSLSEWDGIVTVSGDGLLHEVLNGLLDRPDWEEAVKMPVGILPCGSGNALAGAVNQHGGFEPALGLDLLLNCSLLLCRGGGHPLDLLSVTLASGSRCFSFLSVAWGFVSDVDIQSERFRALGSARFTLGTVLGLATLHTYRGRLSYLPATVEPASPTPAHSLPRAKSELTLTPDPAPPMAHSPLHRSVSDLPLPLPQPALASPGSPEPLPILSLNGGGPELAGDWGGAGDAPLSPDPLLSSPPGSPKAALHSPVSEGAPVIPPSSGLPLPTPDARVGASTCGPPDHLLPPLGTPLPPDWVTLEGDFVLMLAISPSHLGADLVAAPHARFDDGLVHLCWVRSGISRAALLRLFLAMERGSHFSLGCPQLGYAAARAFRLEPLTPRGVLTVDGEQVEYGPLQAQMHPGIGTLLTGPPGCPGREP

# Study 1
# Structure (SMILES): CC[C@@]1(c2cccc(-c3c(F)cncc3OC)c2)C2=C(Nc3n[nH]cc31)[C@H](F)C(C)(C)CC2=O (single isomer, unassigned)
# Tested at: 1 µM
target,test,how to read,remaining binding
"Serine/threonine-protein kinase TAO3 (TAOK3, Homo sapiens, UniProt Q9H2K8)","kinase binding, KINOMEscan",relative to: DMSO control,71%
"Serine/threonine-protein kinase RIO1 (RIOK1, Homo sapiens, UniProt Q9BRS2)","binding, competition with immobilised ligand",,59%
"Ephrin type-B receptor 6 (EPHB6, Homo sapiens, UniProt O15197)","binding, competition with immobilised ligand",,84%
"Insulin-like growth factor 1 receptor (IGF1R, Homo sapiens, UniProt P08069)","kinase binding, KINOMEscan",relative to: DMSO control,86%
"Serine/threonine-protein kinase MARK1 (MARK1, Homo sapiens, UniProt Q9P0L2)","binding, competition with immobilised ligand",,86%
"Muscle, skeletal receptor tyrosine-protein kinase (MUSK, Homo sapiens, UniProt O15146)","binding, competition with immobilised ligand",,93%
"Dual specificity mitogen-activated protein kinase kinase 7 (MAP2K7, Homo sapiens, UniProt O14733)","kinase binding, KINOMEscan",relative to: DMSO control,77%
"Phosphatidylinositol 4,5-bisphosphate 3-kinase catalytic subunit alpha isoform (PIK3CA, Homo sapiens, UniProt P42336, H1047L)","kinase binding, KINOMEscan",relative to: DMSO control,96%
"Myotonin-protein kinase (DMPK, Homo sapiens, UniProt Q09013)","binding, competition with immobilised ligand",,77%
"ALK tyrosine kinase receptor (ALK, Homo sapiens, UniProt Q9UM73, C1156Y)","kinase binding, KINOMEscan",relative to: DMSO control,73%
"5'-AMP-activated protein kinase catalytic subunit alpha-1 (PRKAA1, Homo sapiens, UniProt Q13131)","kinase binding, KINOMEscan",relative to: DMSO control,78%
"Serine/threonine-protein kinase/endoribonuclease IRE1 (ERN1, Homo sapiens, UniProt O75460)","kinase binding, KINOMEscan",relative to: DMSO control,42%

# Study 2
# Structure (SMILES): CCN1/C(=C/C=C2\CCCC(/C=C/C3=[N+](CC)c4ccccc4C3(C)C)=C2NCCCCCCCCN2CCC(Nc3nc4ccccc4n3Cc3ccc(F)cc3)CC2)C(C)(C)c2ccccc21
# Cell line: U-87 MG
# Tested at: concentration not given
# Relative to: DMSO
test,log2 fold change
measured: PAGR1 mRNA,-1.03
measured: CREB3L1 mRNA,-1.52
measured: PLK4 mRNA,-2.21
measured: RNASE1 mRNA,-2.93
measured: TRIM14 mRNA,-0.95
measured: ACTN2 mRNA,2.83
measured: TTC39B mRNA,1.38
measured: MFAP3L mRNA,1.81
measured: PAFAH1B3 mRNA,-1.14
measured: BCL9L mRNA,-1.49
measured: PRSS12 mRNA,-1.28

# Study 3
# SMILES: CNc1ncc2cc(-c3cc(OC)cc(OC)c3Cl)c(=O)n(CCc3ccc(NC(=O)C(C#N)=CC(C)(C)N4CCOCC4)cc3)c2n1
# Effect on: kinase activity
target,conditions,inhibition [%]
"Death-associated protein kinase 3 (DAPK3, Homo sapiens, UniProt O43293)",1 µM,-7
"Leukocyte tyrosine kinase receptor (LTK, Homo sapiens, UniProt P29376)",0.1 µM,-2
"Cyclin-dependent kinase 3, with cyclin E (CDK3, Homo sapiens, UniProt Q00526)",1 µM,5
"Interleukin-1 receptor-associated kinase 1 (IRAK1, Homo sapiens, UniProt P51617)",0.1 µM,1
"Mitogen-activated protein kinase 8 (MAPK8, Homo sapiens, UniProt P45983)",1 µM,6
"Tyrosine-protein kinase Fyn (FYN, Homo sapiens, UniProt P06241)",0.1 µM,0
"Casein kinase I isoform gamma-2 (CSNK1G2, Homo sapiens, UniProt P78368)",1 µM,9
"Serine/threonine-protein kinase 4 (STK4, Homo sapiens, UniProt Q13043)",0.1 µM,9
"Serine/threonine-protein kinase 3 (STK3, Homo sapiens, UniProt Q13188)",0.1 µM,1
"Sphingosine kinase 2 (SPHK2, Homo sapiens, UniProt Q9NRA0)",0.1 µM,0
"Glycogen synthase kinase-3 alpha (GSK3A, Homo sapiens, UniProt P49840)",0.1 µM,-8
"Mast/stem cell growth factor receptor Kit (KIT, Homo sapiens, UniProt P10721)",0.1 µM,7
"Serine/threonine-protein kinase PAK 6 (PAK6, Homo sapiens, UniProt Q9NQU5)",0.1 µM,2

# Study 4
# Structure (SMILES): C[C@@H]1CN(c2ccc(-c3cc(C(=O)NCCOCCOCCOCCOCCOCCOCCNC(=O)/C=C/c4[nH]cc(C(=O)N[C@@H](CC(N)=O)c5ccc(F)c(Cl)c5)c4-c4ccc(Cl)cc4F)ccc3F)cc2NC(=O)c2ccc(F)cc2C(F)(F)F)C[C@H](C)N1C
# Effect on: thermal unfolding
# Technique: differential scanning fluorimetry
# Tested at: 5.5 µM
# Direction: higher = more unfolded
# WDR5: WD repeat-containing protein 5 (WDR5, Homo sapiens, UniProt P61964)
# DCAF1: DDB1- and CUL4-associated factor 1 (DCAF1, Homo sapiens, UniProt Q9Y4B6)
# UniProt Q9Y4B6, sequence (whole entry, looked up): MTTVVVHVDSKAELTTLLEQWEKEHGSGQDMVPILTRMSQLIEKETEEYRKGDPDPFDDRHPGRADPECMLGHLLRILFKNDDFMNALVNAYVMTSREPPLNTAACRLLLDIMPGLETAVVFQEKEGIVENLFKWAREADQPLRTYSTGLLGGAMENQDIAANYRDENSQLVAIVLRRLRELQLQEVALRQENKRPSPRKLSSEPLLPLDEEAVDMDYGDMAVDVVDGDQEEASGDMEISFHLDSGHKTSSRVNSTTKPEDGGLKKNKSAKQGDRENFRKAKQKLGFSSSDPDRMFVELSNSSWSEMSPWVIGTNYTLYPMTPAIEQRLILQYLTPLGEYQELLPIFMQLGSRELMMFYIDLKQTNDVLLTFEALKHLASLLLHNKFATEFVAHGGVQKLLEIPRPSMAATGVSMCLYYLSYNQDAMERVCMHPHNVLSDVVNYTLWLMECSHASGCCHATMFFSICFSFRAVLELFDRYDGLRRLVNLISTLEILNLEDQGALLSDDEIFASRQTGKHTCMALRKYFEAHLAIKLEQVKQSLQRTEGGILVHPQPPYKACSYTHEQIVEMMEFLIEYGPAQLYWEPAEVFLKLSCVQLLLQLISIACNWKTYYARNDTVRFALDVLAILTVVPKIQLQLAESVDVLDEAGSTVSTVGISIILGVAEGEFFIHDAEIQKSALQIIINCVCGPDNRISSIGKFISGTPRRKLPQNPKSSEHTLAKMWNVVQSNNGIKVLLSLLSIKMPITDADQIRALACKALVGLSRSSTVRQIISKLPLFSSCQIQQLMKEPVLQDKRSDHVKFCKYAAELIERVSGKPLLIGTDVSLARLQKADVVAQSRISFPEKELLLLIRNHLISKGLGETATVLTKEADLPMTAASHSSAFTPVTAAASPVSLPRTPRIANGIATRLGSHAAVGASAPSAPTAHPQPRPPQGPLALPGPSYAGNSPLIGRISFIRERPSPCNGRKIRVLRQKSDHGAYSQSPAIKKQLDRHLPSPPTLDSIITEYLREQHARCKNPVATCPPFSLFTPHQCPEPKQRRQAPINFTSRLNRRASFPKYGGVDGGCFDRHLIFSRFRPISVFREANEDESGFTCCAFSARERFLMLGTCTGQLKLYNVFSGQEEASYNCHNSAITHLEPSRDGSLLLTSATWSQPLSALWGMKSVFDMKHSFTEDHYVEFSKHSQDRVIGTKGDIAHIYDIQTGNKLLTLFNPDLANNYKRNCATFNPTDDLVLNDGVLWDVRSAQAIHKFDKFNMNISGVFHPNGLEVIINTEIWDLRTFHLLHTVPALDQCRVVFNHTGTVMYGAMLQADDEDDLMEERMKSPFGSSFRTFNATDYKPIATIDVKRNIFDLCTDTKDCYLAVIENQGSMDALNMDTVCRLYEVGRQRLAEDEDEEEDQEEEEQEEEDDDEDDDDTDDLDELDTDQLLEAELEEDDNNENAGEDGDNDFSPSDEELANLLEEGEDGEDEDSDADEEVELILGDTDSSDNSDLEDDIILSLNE
target,conditions,SYPRO Orange fluorescence
WDR5,80.81 °C,65600 a.u.
DCAF1,63.21 °C,54000 a.u.
WDR5,83.21 °C,64600 a.u.
DCAF1,94.21 °C,29200 a.u.
DCAF1,64.61 °C,53800 a.u.
DCAF1,53.21 °C,22700 a.u.
DCAF1,92.01 °C,30900 a.u.

# Some of these lines once more (study 2):
test,log2 fold change
measured: ACTN2 mRNA,2.83
measured: TTC39B mRNA,1.38
measured: RNASE1 mRNA,-2.93
measured: PLK4 mRNA,-2.21
